Measured values pooled from the literature.
Compare with care: the assays were run in different laboratories. Values joined by “and” are separate records of one study, mostly repeats; a detail may differ.
Target: Wee1-like protein kinase (WEE1, Homo sapiens, UniProt P30291)

| SMILES | test | test system | conditions | scale | quantity | result |
| --- | --- | --- | --- | --- | --- | --- |
| N[C@H]1CC[C@H](Nc2nccc(-c3cccnc3Oc3ccc(NC(=O)NC4CC4)c4ccccc34)n2)CC1 | kinobead competition pulldown | HEK293/HCT116 lysate mixture | 10 µM, 1 h, 4 °C | lower = stronger competition | log2 LFQ intensity | 27.5 and 27.6 and 27.4 |
| NC(=O)C[C@H]1CCc2sc3ncnc(O[C@H]4CC[C@H](N5CCOCC5)CC4)c3c21 | enzyme activity, inhibitor |  | 10 µM |  | inhibition | -3% |
| COCC12C(=O)NC3C4(C(OC)CC1O)C1CC5(O)C(OC)C(O)C(OC(C)=O)(C1C5OC(=O)c1ccccc1)C3(O)C(OC)C24 (stereo not shown) | kinase activity, inhibitor, ProQinase kinase profiling |  | 25 µM | reference: control | remaining activity | 102% and 95% |
| CN1CC[C@@H](COc2cnc(C#N)cc2-c2ccn3nc(NC(=O)C4CC4)cc3c2)C1 | enzyme activity, inhibitor |  | 1 µM |  | inhibition | 2% |
| C=CC(=O)Nc1cc(-c2nn(C3CCN(CCNC(=O)[C@H](C)CCC45CC6CC(CC(C6)C4)C5)CC3)c3ncnc(N)c23)ccc1Oc1ccccc1 | inhibitor, KiNativ profiling | biochemical | 2 µM |  | inhibition | -12.9% |
| CNC1C[S+]2CC[S+]3CC[S+](C1)[Ru-4]321([N]=C=S)[n]2c3ccc(OC)cc3c3c4c(c5cc(F)c[n+]1c5c32)C(=O)NC4=O (stereo not shown) | KinomeScan |  | 0.1 µM | reference: untreated | remaining binding | 100% |
| COc1cc(Nc2nc(C)cc(-c3cnn4nc(OC)ccc34)n2)cc(C(F)(F)F)c1 | binding, competition with immobilised ligand |  | 1 µM |  | remaining binding | 95% |
| C=CC(=O)N1Cc2nc(-c3cc(-c4cc(Cl)cnc4Cl)c(F)cc3F)n(-c3ccncn3)c2C1 | cell-free assay, inhibitor |  | 1 µM |  | inhibition | -8% |
| CC(C)=CC1OC(C)(C)C2C=C3C(=O)C(Cl)=CC(O)C3C3C(O)C4OC4C(=O)C132 (stereo not shown) | cell-free assay, competition with immobilised ligand |  | 10 µM |  | remaining binding | 97% |
| CNC(=O)C1CCN(c2cc(C)c(F)cc2NC(=O)c2ccc(-c3cc(O)ccc3C)c(C)c2)CC1 | binding, competition with immobilised ligand |  | 1 µM |  | remaining binding | 100% |
| Cc1ccc(C(=O)Nc2ccc(CN3CCN(C)CC3)c(C(F)(F)F)c2)cc1C#Cc1cnc2cccnn12 | target engagement, NanoBRET | human cells |  |  | Hill slope | -1.85 |
| COc1c(Cl)cccc1Nc1c(-c2ccncc2C#C[C@@]2(C)CCCN2C(=O)/C=C/CN(C)C)[nH]c2c1C(=O)NCC2 | binding, competition with immobilised ligand |  | 3 µM |  | remaining binding | 100% |
| CS(=O)(=O)Nc1cccc(-c2csc3cnc(Nc4ccc(N5CCN(CCCCCOc6cccc7c6C(=O)N(C6CCC(=O)NC6=O)C7=O)CC5)cc4)nc23)c1 (stereo not shown) | target engagement in cells | MOLT-4 | 1 µM |  | inhibition | > 75% |
| Nc1ncc2c(n1)-c1c([nH]c3ccc(C4=CCOCC4)cc13)CCC2 | binding, competition with immobilised ligand |  | 1 µM |  | remaining binding | 83% |
| C=CC(=O)N1CCc2ccc(-n3c(=O)ccc4cnc5ccc(-c6cnn(C)c6)cc5c43)cc21 | KINOMEscan |  | 1 µM | reference: DMSO control | remaining binding | 95% |
| CNC(=O)C[C@H](Cc1ccc(C#N)cc1)NC(=O)c1cc(-c2ccc(CN[C@H](C)c3ccc(C)cc3)o2)ccc1Cl | enzyme activity, inhibitor |  | 1 µM |  | activity vs control | 106% |

Some of these lines once more:
| SMILES | test | test system | conditions | scale | quantity | result |
| --- | --- | --- | --- | --- | --- | --- |
| COCC12C(=O)NC3C4(C(OC)CC1O)C1CC5(O)C(OC)C(O)C(OC(C)=O)(C1C5OC(=O)c1ccccc1)C3(O)C(OC)C24 (stereo not shown) | kinase activity, inhibitor, ProQinase kinase profiling |  | 25 µM | reference: control | remaining activity | 102% and 95% |
| C=CC(=O)N1Cc2nc(-c3cc(-c4cc(Cl)cnc4Cl)c(F)cc3F)n(-c3ccncn3)c2C1 | cell-free assay, inhibitor |  | 1 µM |  | inhibition | -8% |
